Results pooled from the literature.
Every numbered part comes from another study and shows a few of its results, in no order. Positions count from the first letter of the parent shown.

Study 1 — method: RNA Bind-n-Seq; form: RNA; medium: in vitro; concentration: not given; reference: input RNA pool; direction: higher = stronger binding
Target: RING finger protein unkempt homolog, zinc fingers 1-6, GST-SBP tag (UNK, Homo sapiens, UniProt Q9C0B0, residues 30-357)
Setting: RNA with constant flanks, human-mouse chimeric sites, ends assumed
Target sequence (chain): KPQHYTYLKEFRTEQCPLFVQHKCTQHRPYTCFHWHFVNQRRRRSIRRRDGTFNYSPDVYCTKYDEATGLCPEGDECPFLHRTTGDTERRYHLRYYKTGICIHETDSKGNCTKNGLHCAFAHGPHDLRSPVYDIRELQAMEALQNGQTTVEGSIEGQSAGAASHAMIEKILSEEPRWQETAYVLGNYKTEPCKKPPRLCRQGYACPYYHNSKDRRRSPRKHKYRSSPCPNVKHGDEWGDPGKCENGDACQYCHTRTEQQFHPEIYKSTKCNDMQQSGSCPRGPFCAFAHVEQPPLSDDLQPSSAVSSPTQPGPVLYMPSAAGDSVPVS
| Sequence | bound/input enrichment |
| --- | --- |
| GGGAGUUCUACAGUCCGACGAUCGGUGGGGUGGUCAUUGCGCCAAUUGAGGCUGAUUUUCAUGAGUCGCCUUCAAAACUCUCGUGUAGGGUUGACAAUGUGGGGGGGUGGGGGAUCCAGCUUAUUCUUUUUCCCCAGCCCCCACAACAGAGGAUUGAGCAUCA | 1.76 ratio |
| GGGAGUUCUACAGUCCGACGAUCGUGCCCUUCUCGCUGCUGCGGAGCCCGAGCUGGGAACCAUUCCGGGACGACUGGUACGCACACAGCCGCCUCUUCGACCAGGCCUUCGGGGUGCCCCGGUUGCCCGAUGAGUGGUCGCAGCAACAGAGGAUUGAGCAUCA | 0.101 ratio |
| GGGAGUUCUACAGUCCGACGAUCGCCACCAGAUCCCAGAAACAUGACCCUUGCUGCCUACAAGGAGAAGAUGAAGGAACUCCCGCUGGUGUCCUUGUUCUGCUCCUGCUUCCUGGCCGAUCCCCUGAAUAAGUCGUCCUACAACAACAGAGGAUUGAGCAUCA | 0.218 ratio |
| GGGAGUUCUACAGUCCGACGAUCUAAAUUAGGGCUGCCGUUUUCUGUUUCGCCCUGAGCUGCGGAAAGCCAGAAGAUUUUAUCUAGCUUAUACAAGGCUGCUGGUGUUCCCUCUUUUUUUCCACGAGGGUGUUUUUGGCUGCACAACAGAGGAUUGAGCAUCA | 0.473 ratio |
| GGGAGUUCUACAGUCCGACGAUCCUGGGUAUCAUCUCUCGUGCUGUUAGACACCUGUUCAAGAGUAUUGAUGAGAAAAAGCACAUAGCAAUUAAAAACGGGCUGCCCCCUCCUGAAUUCAAAGUGAAUGCCCAGUUCCUAGAGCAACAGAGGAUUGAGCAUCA | 0.948 ratio |
| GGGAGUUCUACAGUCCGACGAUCUCUGAGGUACCACUGAAGAGACCUUAAAAGAAUCAUUUGAGGGCUCUGUUCGUGCAAGAAUAGUCACUGAUCGGGAAACUGGUUCUUCCAAAGGGUUUUGGUUUUGUGACUUUAAUAGUGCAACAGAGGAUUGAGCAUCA | 0.291 ratio |
| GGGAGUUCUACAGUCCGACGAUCUGACAAGGGCACUGCAGAGCCAUGCCUUUCCUUGACAUCCAGAAAAGGCUGGGCAUCAGCCUGGACCGGCACUUUAUGUUCCUAAGCGGUGAACAGCCCUAUAAGAACGCCGCUCGGUGCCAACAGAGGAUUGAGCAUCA | 0.0611 ratio |
| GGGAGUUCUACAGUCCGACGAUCAUCAAAUACUUUGGGGACAUCAUUAGUGUGGGACAGAGACUGUUGCAAGGAGCUCGGAUUUUAGGAAUUCCAGUUAUCAUAACGGAACAAUACCCCAAAGGACUUGGGAGCACGGUUCAACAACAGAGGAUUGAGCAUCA | 0.566 ratio |

Study 2 — method: protein binding microarray; form: double-stranded DNA, one strand shown; medium: in vitro; concentration: not given; reference: not given; direction: higher = stronger binding
Target: Histone acetyltransferase KAT6A, both winged helices, GST fusion (KAT6A, Homo sapiens, UniProt Q92794, residues 1-181)
Setting: 8-mer, flanks averaged, mean of 2 arrays, mostly near background
Residues (chain): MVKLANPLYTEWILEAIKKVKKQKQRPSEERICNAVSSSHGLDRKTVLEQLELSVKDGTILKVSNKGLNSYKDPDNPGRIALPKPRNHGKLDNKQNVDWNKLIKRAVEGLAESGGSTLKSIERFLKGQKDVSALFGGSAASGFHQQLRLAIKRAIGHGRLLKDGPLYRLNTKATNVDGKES
| Sequence | E-score |
| --- | --- |
| CAAAAGCC | 0.02 |
| GAATCTAC | 0.0263 |
| ATTGATCA | -0.0979 |
| ATGGTCAG | -0.181 |
| TGAGTTAA | -0.034 |
| GCAAGGCA | -0.124 |
| CGTACTAC | 0.157 |
| ATGTGCAA | -0.149 |
| CACTCGAG | -0.141 |
| CACCGGCA | 0.223 |
| CCCTTCTA | -0.12 |
| CAATCTAA | -0.058 |
| AAGGTCCG | 0.125 |
| AAGTCAGT | -0.0379 |
| ACCGTACC | 0.218 |
| ACTACTGG | -0.237 |
| CGACCCCA | -0.108 |
| ACCTGTGG | -0.168 |
| AAGCTCGA | -0.137 |
| GGACGTTA | 0.0544 |
| ATAAAGTG | -0.162 |
| ACTTGAGC | -0.143 |
| ACTGACGA | -0.109 |
| GGGCGCTA | 0.103 |
| TAGGGGAA | -0.275 |

Study 3 — method: RNA Bind-n-Seq; form: RNA; medium: in vitro; concentration: 365 nM; reference: no-protein control; direction: higher = stronger binding
Target: RNA binding protein fox-1 homolog 2, RRM domain, GST-SBP tag (RBFOX2, Homo sapiens, UniProt O43251-10, residues 100-194)
Setting: natural RNA segment, single round, ends assumed
Residues (chain): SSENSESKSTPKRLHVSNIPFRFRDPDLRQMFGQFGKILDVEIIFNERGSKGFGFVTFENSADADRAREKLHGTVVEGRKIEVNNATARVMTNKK
| Sequence | RBNS enrichment (R) |
| --- | --- |
| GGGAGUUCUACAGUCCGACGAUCAGGAGGCAGCUGCUGCUCAGACGGAGGGGCCUUCAACACCAUCUAGUUUUCCAGCCCAGGAAGAACACAGGGAAAAACCAGGAAGGGAUGUUCUAGAACCCACACAAGCGUGGAAUUCUCGGGUGCCAA | 0.294 |
| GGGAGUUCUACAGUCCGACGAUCUUUGUCAGAACCUUCCAGUCCCUUCUUACUCCCCGGUUAACUGAGGUUUUUACCAAUUUCUAGAGCAGUUCAAACCCUAAGUGCUCAAGCGCUUACACAUCCCCUCUGGUUGGAAUUCUCGGGUGCCAA | 0.408 |
| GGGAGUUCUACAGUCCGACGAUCUGACAUGGGGAGCAAUGCUAAGCAAGCUAAGUGUAAAAGAAAAGUGACAGAAUAAUUUUGGAAGAGGAAGCCUCAUCAAAAGCUCACACAAAAUAGAGCUUCCCAUGGUGUGGAAUUCUCGGGUGCCAA | 0.502 |
| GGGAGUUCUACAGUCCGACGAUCCUCCCCUCUUUAAGAACACAUAGCUUAGGAUUGCCUUGGCGAUGUGGGCUCUUUUUUGGUUCCAUAUGAACUUAAGUAGUUUUUUCCAAUUCUGUGAAGAAAGUCAUUGGUGGAAUUCUCGGGUGCCAA | 0.312 |
| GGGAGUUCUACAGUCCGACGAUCUCGGGAGGCUGAGGCAGGAGAAUCGCUUGAACCCUGGCGAAACCCCAUUUCUAAAAUAGAAAAAUUUAGCCGGGUGUGGUGGUGUGUGCCUAUAGUCCCAGCUAUUCGGGUGGAAUUCUCGGGUGCCAA | 0.842 |
| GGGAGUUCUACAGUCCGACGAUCAAGUUCUGAGAGAUGGGGAGCGGCCCCCAGCCCCCGCCCCAUCCUGUCAGGUUGGUGCGGAAGGGCUAGGAUCCUUGCCGCCCUUCCCUUCGGUGCCGGAACCCUCCCAAUGGAAUUCUCGGGUGCCAA | 0.179 |
| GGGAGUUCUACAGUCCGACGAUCGUUUUCUUAGGAGGGUGUCUGGCAGAGACAGGCCAGCCCCCACUUGCUGGCCAGGGGUCCCUUGGGGCAGCACGUGGACCCUUCCAAAACUAUACACACUGCCCCCGACUUGGAAUUCUCGGGUGCCAA | 0.793 |
| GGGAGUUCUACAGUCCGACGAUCGUGAGUUUCCAAUGUAUUAUCUUAUAUCAAGUAAGAAAUCAAGUAUAUAUCAGCAGAGGCUUACCAAAGUCAUACCUGCUCUCCUCCACUAUUCUCUUCCAGAGUUUUCUUGGAAUUCUCGGGUGCCAA | 0.389 |

Study 4 — method: DHFR PCA, deep sequencing; medium: yeast; together with: (+)-ABA 0.39 µM; reference: wild-type fitted maximum; direction: higher = stronger binding
Target: ABI1, truncated, D143A, DHFR fusion (Arabidopsis thaliana)
Setting: methotrexate growth selection, single substitutions
Starting sequence: PYL1, truncated, DHFR fusion (Arabidopsis thaliana); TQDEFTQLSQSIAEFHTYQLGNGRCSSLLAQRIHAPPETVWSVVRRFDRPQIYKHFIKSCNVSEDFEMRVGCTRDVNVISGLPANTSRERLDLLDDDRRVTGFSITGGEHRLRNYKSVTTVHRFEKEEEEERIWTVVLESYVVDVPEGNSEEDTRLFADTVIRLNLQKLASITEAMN; partner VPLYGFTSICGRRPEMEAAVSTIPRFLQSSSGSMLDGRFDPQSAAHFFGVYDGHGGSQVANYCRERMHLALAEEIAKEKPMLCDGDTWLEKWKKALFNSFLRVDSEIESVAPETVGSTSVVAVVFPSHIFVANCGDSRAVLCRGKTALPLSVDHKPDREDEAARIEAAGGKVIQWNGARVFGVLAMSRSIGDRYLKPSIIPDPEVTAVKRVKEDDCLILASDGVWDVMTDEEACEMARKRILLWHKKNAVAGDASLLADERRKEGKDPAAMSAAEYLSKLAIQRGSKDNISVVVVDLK
| Change | relative binding score |
| --- | --- |
| C60E | -5.23% |
| T173D | -38.6% |
| T39P | -2.67% |
| R24H | 12.2% |
| F47L | -7.65% |
| M68A | 9.46% |
| E128F | 29.3% |
| A170M | 20.8% |
| R163I | -13.6% |
| F56I | 1.76% |
| H110P | 67.2% |
| D96M | -18% |
| N149D | 18.1% |
| S171V | 35.2% |
| R123E | 60.5% |
| V76S | -8.41% |

For quick reference, copied from above (study 3):
| Sequence | RBNS enrichment (R) |
| --- | --- |
| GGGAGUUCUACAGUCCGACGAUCAGGAGGCAGCUGCUGCUCAGACGGAGGGGCCUUCAACACCAUCUAGUUUUCCAGCCCAGGAAGAACACAGGGAAAAACCAGGAAGGGAUGUUCUAGAACCCACACAAGCGUGGAAUUCUCGGGUGCCAA | 0.294 |
| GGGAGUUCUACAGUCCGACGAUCUUUGUCAGAACCUUCCAGUCCCUUCUUACUCCCCGGUUAACUGAGGUUUUUACCAAUUUCUAGAGCAGUUCAAACCCUAAGUGCUCAAGCGCUUACACAUCCCCUCUGGUUGGAAUUCUCGGGUGCCAA | 0.408 |
| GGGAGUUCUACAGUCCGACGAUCUGACAUGGGGAGCAAUGCUAAGCAAGCUAAGUGUAAAAGAAAAGUGACAGAAUAAUUUUGGAAGAGGAAGCCUCAUCAAAAGCUCACACAAAAUAGAGCUUCCCAUGGUGUGGAAUUCUCGGGUGCCAA | 0.502 |
| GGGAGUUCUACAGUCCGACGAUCCUCCCCUCUUUAAGAACACAUAGCUUAGGAUUGCCUUGGCGAUGUGGGCUCUUUUUUGGUUCCAUAUGAACUUAAGUAGUUUUUUCCAAUUCUGUGAAGAAAGUCAUUGGUGGAAUUCUCGGGUGCCAA | 0.312 |
| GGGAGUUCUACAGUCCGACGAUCUCGGGAGGCUGAGGCAGGAGAAUCGCUUGAACCCUGGCGAAACCCCAUUUCUAAAAUAGAAAAAUUUAGCCGGGUGUGGUGGUGUGUGCCUAUAGUCCCAGCUAUUCGGGUGGAAUUCUCGGGUGCCAA | 0.842 |
| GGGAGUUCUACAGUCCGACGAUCAAGUUCUGAGAGAUGGGGAGCGGCCCCCAGCCCCCGCCCCAUCCUGUCAGGUUGGUGCGGAAGGGCUAGGAUCCUUGCCGCCCUUCCCUUCGGUGCCGGAACCCUCCCAAUGGAAUUCUCGGGUGCCAA | 0.179 |
| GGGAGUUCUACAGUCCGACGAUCGUUUUCUUAGGAGGGUGUCUGGCAGAGACAGGCCAGCCCCCACUUGCUGGCCAGGGGUCCCUUGGGGCAGCACGUGGACCCUUCCAAAACUAUACACACUGCCCCCGACUUGGAAUUCUCGGGUGCCAA | 0.793 |
